Published values collected from several papers.
Parts stem from different laboratories: compare values within a part only. Substitutions count along the parent as printed.

Set 1
Target: ABI1, truncated, D143A, DHFR fusion (Arabidopsis thaliana)
Technique: DHFR PCA, deep sequencing
Medium: yeast
Notes: methotrexate growth selection, single substitutions
Together with: (+)-ABA 1.4 µM
Reference: wild-type fitted maximum
Reading: higher = stronger binding
Parent: PYL1, truncated, DHFR fusion (Arabidopsis thaliana); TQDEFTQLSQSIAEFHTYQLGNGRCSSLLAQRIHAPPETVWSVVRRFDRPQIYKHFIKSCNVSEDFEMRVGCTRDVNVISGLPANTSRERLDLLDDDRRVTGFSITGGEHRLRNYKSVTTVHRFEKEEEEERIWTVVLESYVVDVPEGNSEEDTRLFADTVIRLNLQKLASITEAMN; partner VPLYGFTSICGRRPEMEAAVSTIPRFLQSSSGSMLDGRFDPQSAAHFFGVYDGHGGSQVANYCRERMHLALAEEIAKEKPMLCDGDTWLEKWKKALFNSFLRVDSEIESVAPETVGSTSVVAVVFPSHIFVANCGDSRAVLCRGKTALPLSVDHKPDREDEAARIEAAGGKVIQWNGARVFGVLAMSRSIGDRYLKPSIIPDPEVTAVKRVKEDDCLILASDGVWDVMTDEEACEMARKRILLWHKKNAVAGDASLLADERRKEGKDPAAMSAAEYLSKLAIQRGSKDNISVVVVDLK
| Change | relative binding score [%] |
| --- | --- |
| T101D | -3.56 |
| T73C | 44.5 |
| R49N | 35.2 |
| L91A | 11.2 |
| L20I | 46.1 |
| L112R | -3.6 |
| T173M | 10.5 |
| A84N | 17.2 |
| L156S | 38.2 |
| E151V | 57.3 |
| K126H | 67.6 |

Set 2
Target: CCNB2, cyclin fold, Cln2 fusion (human)
Technique: yeast growth competition, sequencing
Medium: yeast
Notes: weak parent motif
Reference: not given
Reading: higher = stronger binding
Parent: WEE1 docking peptide (human); HKTFRKLRLFDTP; partner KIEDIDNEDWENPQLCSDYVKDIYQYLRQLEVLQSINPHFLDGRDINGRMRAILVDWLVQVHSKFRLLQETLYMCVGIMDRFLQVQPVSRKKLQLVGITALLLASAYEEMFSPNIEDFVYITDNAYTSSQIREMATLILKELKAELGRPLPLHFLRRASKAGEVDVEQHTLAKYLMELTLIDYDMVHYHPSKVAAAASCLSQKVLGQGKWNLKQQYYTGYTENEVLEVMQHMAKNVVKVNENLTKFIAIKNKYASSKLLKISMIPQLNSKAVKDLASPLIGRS
| Change | normalised enrichment score |
| --- | --- |
| L9M | 0.561 |
| L7I | 1.14 |
| R5E | 0.647 |
| L7H | 0.416 |
| R8A | 0.0969 |
| T3W | 0.327 |
| T3V | 0.697 |
| L7D | -0.173 |
| R5T | 0.513 |
| R8I | 0.774 |
| D11K | 0.703 |
| D11Y | -0.119 |
| R5N | -4.21 |
| F10I | 1.21 |
| F4Q | 0.336 |
| T12K | 1.28 |
| R8M | 0.297 |
| L7N | 0.814 |
| R8Q | 0.894 |
| L9D | 0.342 |
| T3K | 0.0548 |
| L9I | 0.296 |
| R5G | 0.564 |
| P13M | 1.3 |
| H1K | 1.34 |

Set 3
Target: Sal-like protein 4, full length isoform B (SALL4, Homo sapiens, UniProt Q9UJQ4-2, residues 1-616)
Technique: universal PBM
Form: double-stranded DNA, one strand shown
Medium: in vitro
Tested at: not given
Notes: 8-mer, flanks averaged, mean of replicates
Reading: higher = stronger binding
Residues (chain): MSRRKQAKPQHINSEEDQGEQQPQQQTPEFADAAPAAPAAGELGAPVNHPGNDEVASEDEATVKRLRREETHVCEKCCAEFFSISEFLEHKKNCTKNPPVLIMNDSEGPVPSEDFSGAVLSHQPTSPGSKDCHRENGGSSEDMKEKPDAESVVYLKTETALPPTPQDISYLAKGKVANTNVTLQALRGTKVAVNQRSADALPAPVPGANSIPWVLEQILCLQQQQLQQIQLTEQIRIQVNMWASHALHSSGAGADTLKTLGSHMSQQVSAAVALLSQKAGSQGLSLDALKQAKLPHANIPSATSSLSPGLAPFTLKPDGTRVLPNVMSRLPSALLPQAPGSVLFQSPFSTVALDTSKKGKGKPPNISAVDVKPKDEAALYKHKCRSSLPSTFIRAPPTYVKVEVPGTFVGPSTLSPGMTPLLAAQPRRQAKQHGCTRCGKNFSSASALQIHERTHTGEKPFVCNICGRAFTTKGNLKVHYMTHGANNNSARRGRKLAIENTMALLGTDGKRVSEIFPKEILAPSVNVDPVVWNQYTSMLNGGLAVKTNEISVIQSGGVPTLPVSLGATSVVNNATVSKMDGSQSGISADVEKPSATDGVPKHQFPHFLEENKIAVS
| Oligonucleotide | E-score |
| --- | --- |
| GAATCGGC | -0.143 |
| GTCCTCCA | 0.00469 |
| CAAAGCAA | 0.0875 |
| GGCCATAC | -0.143 |
| AGAAAGCT | -0.00444 |
| CAACCTTG | 0.01 |
| CGGTATAG | -0.108 |
| CACCGCCG | -0.304 |
| GTACGGTA | 0.0249 |
| CGGTTAAC | -0.114 |
| CAATGGAA | 0.00412 |
| ACCGGGGG | -0.326 |
| AATGTTTC | 0.265 |
| GCGGGACA | -0.228 |
| CCCTAACG | 0.049 |
| ATACCCAT | 0.197 |
| TTGGGAAA | 0.142 |
| ACTTTTAT | 0.285 |
| GGCCCCAA | -0.188 |
| CACGCGTG | -0.283 |
| CGGTTCGA | -0.22 |
| GCTTTATA | 0.13 |
| CGGATCAA | 0.0563 |
| CAACCGCA | -0.121 |
| AAGTGAAG | 0.145 |

Set 4
Target: Histone acetyltransferase KAT6A, both winged helices, GST fusion (KAT6A, Homo sapiens, UniProt Q92794, residues 1-181)
Technique: protein binding microarray
Form: double-stranded DNA, one strand shown
Medium: in vitro
Tested at: not given
Notes: 8-mer, flanks averaged, mean of 2 arrays, mostly near background
Reference: not given
Reading: higher = stronger binding
Construct (chain): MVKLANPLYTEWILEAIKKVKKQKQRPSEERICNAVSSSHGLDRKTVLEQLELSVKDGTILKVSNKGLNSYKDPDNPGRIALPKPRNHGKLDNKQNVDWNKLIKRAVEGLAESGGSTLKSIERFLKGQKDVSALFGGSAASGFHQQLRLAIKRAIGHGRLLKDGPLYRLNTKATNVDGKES
| Oligonucleotide | E-score |
| --- | --- |
| AGCGTTAG | -0.0272 |
| ACTCAGAT | -0.109 |
| GACACCTC | 0.00238 |
| TAGGTTCA | -0.113 |
| AGTCGTTA | -0.113 |
| GCACGAAC | 0.0435 |
| CAGGGCGA | 0.066 |
| GTCGCAAC | 0.0864 |
| AGACGGCC | 0.258 |
| ATGACTTC | -0.0403 |
| ACAGTCGG | 0.135 |
| CTAAGGTA | -0.0817 |
| AAGACTAT | -0.143 |
| ATCCAGGG | -0.172 |
| GAGAAGGC | -0.173 |
| AATCATGC | 0.054 |
| ATCACGAG | -0.146 |
| GTGTGACA | -0.0058 |

Set 5
Target: CREB3, bZIP domain (human)
Technique: DHFR protein complementation
Medium: yeast
Notes: single substitutions, most at no-binding floor
Reference: wild-type JUN-FOS pair
Reading: higher = stronger binding
Parent: JUN, bZIP domain (human); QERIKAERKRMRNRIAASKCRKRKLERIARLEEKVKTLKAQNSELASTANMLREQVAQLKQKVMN; partner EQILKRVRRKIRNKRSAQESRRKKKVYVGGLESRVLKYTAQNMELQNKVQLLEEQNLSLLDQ
| Change | binding fitness |
| --- | --- |
| T37I | -1.35 natural log |
| S47N | -1.37 natural log |
| I28K | -1.46 natural log |
| E54K | -1.41 natural log |
| Q41P | -1.55 natural log |
| V35Q | -1.55 natural log |
| M51F | -1.34 natural log |
| E33D | -1.47 natural log |
| L52D | -1.53 natural log |
| L45H | -1.55 natural log |
| N42S | -1.45 natural log |
| V56R | -1.51 natural log |
| N42R | -1.41 natural log |

Set 6
Target: RING finger protein unkempt homolog, zinc fingers 1-6, SBP tag (UNK, Homo sapiens, UniProt Q9C0B0, residues 30-357)
Sequence of UniProt Q9C0B0 (30-357, looked up): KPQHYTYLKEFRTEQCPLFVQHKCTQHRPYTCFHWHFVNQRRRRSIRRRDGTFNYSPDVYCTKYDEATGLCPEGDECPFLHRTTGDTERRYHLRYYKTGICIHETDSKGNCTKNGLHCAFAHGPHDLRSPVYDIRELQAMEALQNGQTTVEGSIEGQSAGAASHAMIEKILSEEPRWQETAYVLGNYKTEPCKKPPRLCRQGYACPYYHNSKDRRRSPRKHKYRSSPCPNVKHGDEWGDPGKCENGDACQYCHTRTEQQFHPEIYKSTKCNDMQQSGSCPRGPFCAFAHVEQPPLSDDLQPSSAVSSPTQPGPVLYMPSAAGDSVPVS
Technique: RNA Bind-n-Seq
Form: RNA
Medium: in vitro
Tested at: 100 nM
Notes: RNA with constant flanks, vertebrate orthologous sites, ends assumed
Reference: input RNA pool
Reading: higher = stronger binding
All sequences stand within: GGGAGUUCUACAGUCCGACGAUC … CAACAGAGGAUUGAGCAUCA
| Oligonucleotide | bound/input enrichment [ratio] |
| --- | --- |
| GUUAGGUCAUGACCCUUACAGGCUAGGUCAUGAUGCCUACAGGUUAGGACAGGACCCUUACAGAUUAGGCCAUGAUCCCUACAGACUAACUCCUGAUCCUUACAGAAUGUCACCUAGGCC | 0.337 |
| UCUAUACAAUUUAAAAAAUAUUUCCUCAUAGGAUGCUUUGGCCUUUCAUCUAUUUAAUCAUAGCUACAUAUCUAUUUUUUAUAAGUAGCAGUACACAUUCAAAGGGGUAUUCCUAGCUCA | 0.435 |
| GCAUUUGCCGCUAUCACCAAAAGCAAACUUCCACUUUUCAAAUUUCAUUCAGAGCCGUUUUAGUGUUUCCUAUUCCCUACCCUUCCCACGACUUUCUCUGAUGAAAUAUCCUGUUCUCCU | 1.44 |
| GAGCUAAAGGAGUUAGCAUCUUUAUUUUUAUAUCAAAGAUAAAGGUUAUUUUGAAAUUAUUAGGAUUUUUACACAACUCUGAAAUCUGUUGCUUUUGUAAACAAAUGAUUUGAUUUUAGG | 1.22 |
| GUCCCUCAGUGAUAGUAUGCCAUCUGUAGCAGAUUCCCACUCAAGUCAUUUUUCUGAAUUUAGUUGUUCUGACUUAGAAAGCAUGAAAACUUCAUGUAGUCACGGUUCUAGUGAUUAUCA | 0.598 |
| UAUGAAAAGGCUGGAACCCUCCCACCACUUUGCUUCUCUUCACUGGAGGCGUCUGACACCUAGUUUCUCGUUUUUGUUAAAUUGAUUUCUUGUAACAUCAAAUAGGAAUGCUAACUGAUC | 0.428 |
| AGUGCUGAAUAGUAUUAAACAUUUUUGUCUUCCUUUACCUUUUAUCUCCUACCUAAUAUCUAGUCUACUUUUUUAAAUUUCAAAUUUCACUGCUCUUUGAAUUGAUAAUUUCAAUUUUCA | 12 |
| UAUCAGUAGAAUUACAUAAUACUAAAGUUGCCGUUGAAAGAAUAUCCAAGUAUGUGUUGGUAGUUACUUAAAGAAAUAUAGCUGUUAUUGCCUUGUAUUUAUAGUCCUUGUUUCAGGUUU | 1.07 |
| UUUUAUUGAUCAGGUCUGUAAAUGUGUACUAAAAAAAUCAGAGUUUAUUUAUAAACAGAAUAGUUUAUUUAAAGAAAAACUCUUUCCUCACUGACCUUGUGGUAUGCAUUAAUUCCAUUU | 0.0567 |
| UGGGGUUGGGGGGGGUGGUGGGAAGAAGAUGUAUGGAUGUUACUGGCAUUUUUAACUGUUCAGAACUUUUUUUUCUCCCUCUGUUUUGCUUUUUCCCUUUAAUUGGAUGCACUGACCUGG | 0.828 |
| AAAGGAAUAAUCCUGGCUGCUUUUUGCGAGGUAAAGUGUCCCUUGGCAUGUGGUUGAUACCAGCAGCAUCAUCCCUAAUAAGUCAGUGUUUCACUUCUUCCACACGUAGUCCUCUUCAAA | 0.303 |
